Results of several laboratories.
Numbered parts are unrelated; each lists some results of a single study. Several values in a cell are separate wells, animals, samples, runs or records.

Sample 1 — cell line: HEK293; technique: CellTiter-Glo; reference: vehicle
Structure (SMILES): C#Cc1cccc2cc(O)cc(-c3ncc4c(N5CC6CCC(C5)N6)nc(OCC56CCCN5CCC6)nc4c3F)c12
| concentration | viability |
| --- | --- |
| 3.33 µM | 89.4% and 90.7% and 93.4% |
| 10 µM | 92.3% and 91.8% and 87.2% |
| 508 pM | 98.7% and 96.3% and 94.2% |
| 370 nM | 96.5% and 99.4% and 94.2% |
| 1.11 µM | 97.8% and 95.6% and 96.8% |

Sample 2
Compound: Cc1ncsc1-c1ccc(C(CO)NC(=O)C2CC(O)CN2C(=O)C(C(C)C)n2cc(-c3ccc(COc4c(-c5c(C)c(F)cc6[nH]ncc56)c(C5CC5)cc5c(N6CC7CC6CN7)nc(OC6CCOCC6)nc45)cc3)nn2)cc1 (stereo not shown)
| cell line | species | dose | time | tumour volume |
| --- | --- | --- | --- | --- |
| ASPC1 xenograft | mouse | 30 mg/kg once weekly | day 7 | 136 mm3 and 203 mm3 and 180 mm3 and 141 mm3 and 223 mm3 |
| – | mouse, PK-59 xenograft | 1 mg/kg | day 7 | 557 mm3 and 619 mm3 and 508 mm3 and 576 mm3 and 661 mm3 |
| HPAC xenograft | mouse | 30 mg/kg twice weekly | day 14 | 198 mm3 and 339 mm3 and 242 mm3 and 214 mm3 and 180 mm3 |

Sample 3 — observed: thermal unfolding; technique: differential scanning fluorimetry; concentration: 5.5 µM; direction: higher = more unfolded
SMILES: C[C@@H]1CN(c2ccc(-c3cc(C(=O)NCCOCCOCCOCCOCCNC(=O)/C=C/c4[nH]cc(C(=O)N[C@@H](CC(N)=O)c5ccc(F)c(Cl)c5)c4-c4ccc(Cl)cc4F)ccc3F)cc2NC(=O)c2c[nH]c(=O)cc2C(F)(F)F)C[C@H](C)N1C
DCAF1: DDB1- and CUL4-associated factor 1 (DCAF1, Homo sapiens, UniProt Q9Y4B6)
Chain of UniProt Q9Y4B6 (whole entry, looked up): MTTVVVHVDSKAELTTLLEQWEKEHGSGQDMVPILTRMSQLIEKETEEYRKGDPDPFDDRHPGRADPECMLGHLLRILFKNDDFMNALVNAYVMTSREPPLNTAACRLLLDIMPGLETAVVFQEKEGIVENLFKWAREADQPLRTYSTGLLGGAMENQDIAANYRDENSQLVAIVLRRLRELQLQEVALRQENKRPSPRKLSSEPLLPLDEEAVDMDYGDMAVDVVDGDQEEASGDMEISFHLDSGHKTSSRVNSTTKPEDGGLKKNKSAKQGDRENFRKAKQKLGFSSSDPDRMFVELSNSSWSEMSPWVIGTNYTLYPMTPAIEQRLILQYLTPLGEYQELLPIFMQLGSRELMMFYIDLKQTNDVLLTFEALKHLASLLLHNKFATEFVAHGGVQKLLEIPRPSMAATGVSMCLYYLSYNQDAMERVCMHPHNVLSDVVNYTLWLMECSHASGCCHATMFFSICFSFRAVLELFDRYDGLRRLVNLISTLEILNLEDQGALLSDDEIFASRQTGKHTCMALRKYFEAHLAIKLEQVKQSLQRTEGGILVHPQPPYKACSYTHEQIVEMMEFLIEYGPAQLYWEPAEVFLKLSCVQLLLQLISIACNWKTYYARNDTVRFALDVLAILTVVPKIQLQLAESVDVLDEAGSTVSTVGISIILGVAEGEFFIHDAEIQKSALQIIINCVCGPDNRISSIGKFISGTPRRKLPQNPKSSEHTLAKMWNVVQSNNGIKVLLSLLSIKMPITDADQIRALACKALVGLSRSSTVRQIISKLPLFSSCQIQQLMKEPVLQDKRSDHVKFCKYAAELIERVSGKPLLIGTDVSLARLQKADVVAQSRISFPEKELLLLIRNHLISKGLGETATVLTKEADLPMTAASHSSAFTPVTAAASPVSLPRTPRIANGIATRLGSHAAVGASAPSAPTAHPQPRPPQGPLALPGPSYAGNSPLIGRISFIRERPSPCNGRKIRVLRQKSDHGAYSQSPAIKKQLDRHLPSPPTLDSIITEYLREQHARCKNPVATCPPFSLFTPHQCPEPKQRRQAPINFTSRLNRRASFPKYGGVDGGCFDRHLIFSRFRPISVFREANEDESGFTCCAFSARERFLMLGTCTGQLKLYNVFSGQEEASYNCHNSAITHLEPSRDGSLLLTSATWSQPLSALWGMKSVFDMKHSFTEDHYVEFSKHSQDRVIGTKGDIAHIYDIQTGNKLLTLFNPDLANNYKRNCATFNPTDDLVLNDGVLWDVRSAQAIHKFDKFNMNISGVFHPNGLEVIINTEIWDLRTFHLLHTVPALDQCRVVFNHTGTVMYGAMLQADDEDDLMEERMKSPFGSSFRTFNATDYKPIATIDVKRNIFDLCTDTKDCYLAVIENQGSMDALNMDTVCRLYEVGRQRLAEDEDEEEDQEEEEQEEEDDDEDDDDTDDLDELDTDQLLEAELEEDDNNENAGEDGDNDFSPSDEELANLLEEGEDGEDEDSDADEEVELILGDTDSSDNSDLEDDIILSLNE
WDR5: WD repeat-containing protein 5 (WDR5, Homo sapiens, UniProt P61964)
| target | temperature | SYPRO Orange fluorescence [a.u.] |
| --- | --- | --- |
| DCAF1 | 69.81 °C | 56100 |
| DCAF1 | 55.41 °C | 22400 |
| DCAF1 | 51.4 °C | 16400 |
| DCAF1 | 70.01 °C | 55900 |
| DCAF1 | 28 °C | 9010 |
| WDR5 | 37.8 °C | 13900 |
| WDR5 | 64.61 °C | 14000 |
| DCAF1 | 39.4 °C | 11400 |
| DCAF1 | 45.6 °C | 13300 |
| DCAF1 | 76.81 °C | 48100 |

Further values, each from its own experiment — organism: Arabidopsis thaliana
| SMILES | test system | setting | how to read | quantity | value |
| --- | --- | --- | --- | --- | --- |
| O=C(O)C1(O)Oc2cc(F)ccc2N(Cc2ccccc2)C1=O (stereo not shown) | 2-week-old plants | foliar spray, 200 µg/mL, 20 days, postemergence | reference: untreated | fresh weight inhibition | 75.5% and 75.8% and 76.7% |
| CCN1C(=O)C(O)(C(=O)O)Oc2cc(F)ccc21 (stereo not shown) | Col-0 | 100 µg/mL, seed germination | – | root length | 0.328 cm |
| Cc1ccc2c(c1)OC(O)(C(=O)O)C(=O)N2Cc1ccccc1 (stereo not shown) | Col-0 | 100 µg/mL, seed germination | – | root length | 0.752 cm |
| CCCN1C(=O)C(O)(C(=O)O)Oc2cc(F)ccc21 (stereo not shown) | shoots | foliar spray, 200 µg/mL, 20 days | – | fresh weight | 410 mg |
